Results from different studies.
Compare with care: the assays were run in different laboratories. “And” joins repeats or separate records; there may be more than shown. ± marks the error that the study gave.
TDP1: Tyrosyl-DNA phosphodiesterase 1 (TDP1, Homo sapiens, UniProt Q9NUW8)
CASP6: Caspase-6 (CASP6, Homo sapiens, UniProt P55212)
Mini-chromosome maintenance complex-binding protein: Mini-chromosome maintenance complex-binding protein (Homo sapiens, UniProt Q9BTE3)
Uncharacterized protein: Uncharacterized protein (Trypanosoma brucei brucei, UniProt Q386Q8)
Gria1: Glutamate receptor 1 (Gria1, Rattus norvegicus, UniProt P19490)
TARDBP aggregated: TAR DNA-binding protein 43, aggregated (TARDBP, Homo sapiens, UniProt Q13148)
T1: RNase P RNA (Methanobrevibacter smithii); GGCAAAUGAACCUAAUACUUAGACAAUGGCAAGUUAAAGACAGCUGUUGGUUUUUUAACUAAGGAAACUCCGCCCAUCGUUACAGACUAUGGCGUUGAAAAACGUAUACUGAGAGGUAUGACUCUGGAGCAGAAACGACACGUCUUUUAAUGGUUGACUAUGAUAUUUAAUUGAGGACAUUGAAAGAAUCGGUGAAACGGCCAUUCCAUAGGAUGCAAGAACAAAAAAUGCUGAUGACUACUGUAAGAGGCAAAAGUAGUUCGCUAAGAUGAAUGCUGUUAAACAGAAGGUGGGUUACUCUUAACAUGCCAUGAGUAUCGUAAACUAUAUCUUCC

O=C(O)c1ccc(Nc2c(-c3ccccc3)nc3ccc(CON=Cc4cccc5cccnc45)cn23)cc1
inhibition (TDP1; enzyme activity, inhibitor; 100 µM, unpurified compound): 94.9%

CCn1cc(-c2cccc(C(F)(F)F)c2)c2sc(C(=N)NC3CCS(=O)(=O)CC3)cc2c1=O
ΔTm (Bromodomain-containing protein 4, BD2 (BRD4, Homo sapiens, UniProt O60885)): 2.9 °C

Cc1nn(C)c2nc(Cl)c(C=NOCc3ccc4nc(-c5ccccc5)c(Nc5ccc(C(=O)O)cc5)n4c3)cc12
inhibition (TDP1; enzyme activity, inhibitor; 100 µM, unpurified compound): 22.5%

COc1ncc2nc(C)n(Cc3ncc(S(N)(=O)=O)cc3F)c2c1-c1ccccc1
activation (Cholecystokinin receptor type A (CCKAR, Homo sapiens, UniProt P32238); agonist, cell-based; 10 µM): 14%

CCCCCCOc1ccc(C(=O)OCCN2CC=CCC2)cc1
basal binding (Muscarinic acetylcholine receptor M5 (CHRM5, Homo sapiens, UniProt P08912); membranes; 10 µM, 15 h, no carbachol; baseline: control): 1.14 ± 0.04 fold

CC(C)Oc1cc(Cl)ccc1CNc1cc(-c2ccccc2)nc2ncnn12
cAMP luminescence (G-protein coupled receptor 3 (GPR3, Homo sapiens, UniProt P46089, I200W); cAMP GloSensor; human cells; 100 pM; higher is more cAMP): 41400 a.u. and 37100 a.u. and 53200 a.u. and 39300 a.u.

O=[N+]([O-])c1cc(Br)cc([N+](=O)[O-])c1NS(=O)(=O)c1ccc(Br)cc1
phosphatase activity (HAB1 (Arabidopsis thaliana, UniProt Q9CAJ0); inhibitor; 500 µM, no PYL receptor; higher = more activity): 0.226 a.u. and 0.239 a.u.

CC(=O)N[C@H](C(=O)N[C@@H](CCC(=O)O)C(=O)N[C@@H](CO)C(=O)N[C@@H](CC(=O)O)C(=O)COC(=O)c1c(C)cccc1C)[C@@H](C)O
kinact/KI (CASP6; enzyme activity, inhibitor): 195000 M⁻¹ s⁻¹

Cc1cnc2nc1Nc1cccc(c1)COC/C=C/COCc1cc(ccc1OCCN1CCOCC1)N2
remaining binding (Epidermal growth factor receptor (EGFR, Homo sapiens, UniProt P00533, del752-759); binding; 0.1 µM): 97%

Cc1cc(C=NOCc2ccc3nc(-c4ccccc4)c(Nc4ccc(C(=O)O)cc4)n3c2)c(C)n1-c1ccncc1
inhibition (TDP1; enzyme activity, inhibitor; 100 µM, unpurified compound): 16%

CC(C)[C@@H]1NC(=O)[C@H](Cc2ccccc2)NC(=O)CSC[C@@H](C(N)=O)NC(=O)[C@H](CCC(=O)O)NC(=O)[C@H](CO)NC(=O)[C@H](Cc2c[nH]c3cccc(Cl)c23)NC(=O)[C@H](C2CCCCC2)NC(=O)[C@H](C(C)C)NC(=O)[C@H](Cc2ccc(O)cc2)NC(=O)[C@H](CC(=O)O)NC(=O)[C@H](Cc2c[nH]c3ccccc23)NC(=O)[C@H](Cc2ccc(N)nc2)NC(=O)[C@H](Cc2c[nH]c3ccc(Cl)cc23)NC(=O)[C@H](CCC(=O)O)NC1=O
remaining activity (Interleukin-1 receptor-like 2 (IL1RL2, Homo sapiens, UniProt Q9HB29); reporter gene (SEAP), inhibitor, HEK-Blue IL-36R reporter; HEK-Blue IL-36R cells; 1.23 µM, 6 h, together with: IL-36β 0.3 ng/mL): 45.5%

CC(=O)N[C@@H](CC(=O)O)C(=O)N[C@@H](Cc1ccc(I)cc1)C(=O)N[C@@H](C)C(=O)N[C@@H](CC(=O)O)C(=O)COC(=O)c1c(C)cccc1C
kinact/KI (CASP6; enzyme activity, inhibitor): 3200 M⁻¹ s⁻¹

CCCCCC(O)/C=C/C=O (stereo not shown)
isoTOP-ABPP competition ratio (Mini-chromosome maintenance complex-binding protein; competitive isoTOP-ABPP, measured: C10orf119 cysteine peptide; Ramos soluble proteome; 100 µM, together with: iodoacetamide probe; baseline: DMSO over compound-treated, higher = stronger cysteine blockade): 1.7

Fc1ccc(Nc2nc(NC3CCCCC3)c3cc(Br)ccc3n2)cc1F
maximal inhibition (Beta-2 adrenergic receptor (ADRB2, Homo sapiens, UniProt P07550, L155C); β-arrestin2 recruitment, antagonist, BRET; mutant L155C; baseline: isoprenaline maximal response): -0.8%

CCCCc1nc(C=NOCc2ccc(-c3nc4cc(-c5ccccc5)ccn4c3Nc3ccc(C(=O)O)cc3)cc2)c[nH]1 (mixture of isomers)
inhibition (TDP1; enzyme activity, inhibitor; 100 µM, unpurified compound): 57.1%

Cc1ccc2c(c1C)NC(=O)C2(O)CC(=O)c1ccc2c(c1)OCO2 (stereo not shown)
Hill slope (Uncharacterized protein; inhibitor, coupled colorimetric; Trypanosoma brucei): 0.76

O=C(O)c1ccc(Nc2c(-c3ccc(CON=Cc4ccc(S(=O)(=O)c5ccc(Cl)cc5)o4)cc3)nc3cc(-c4ccccc4)ccn23)cc1
inhibition (TDP1; enzyme activity, inhibitor; 100 µM, unpurified compound): 70.5%

COc1ccccc1[C@]1(O)C[C@H](c2ccc(C)cc2)N[C@H](c2ccc(C)cc2)[C@H]1C
Ki (T1, RNase P RNA (Methanobrevibacter smithii); progress curve cleavage assay; together with: pre-tRNA): 17 µM

N=C(N)NCCC[C@@H]1NC(=O)[C@H](Cc2ccccc2)NC(=O)CSC[C@@H](C(=O)N[C@@H](CC(=O)O)C(N)=O)NC(=O)[C@H](CCCNC(=N)N)NC(=O)[C@H](Cc2c[nH]c3ccccc23)NC(=O)[C@H](Cc2ccc(O)cc2)NC(=O)[C@H](Cc2ccc(O)cc2)NC(=O)[C@H](Cc2ccccc2)NC1=O
ΔTm (Bromodomain-containing protein 4, BD1 (BRD4, Homo sapiens, UniProt O60885); thermal stability, DSF; 200 µM): -2.95 °C

O=C(O)c1ccc(Nc2c(-c3ccccc3)nc3ccc(CON=Cc4cc5ccccc5c5ccccc45)cn23)cc1 (mixture of isomers)
inhibition (TDP1; enzyme activity, inhibitor; 100 µM, unpurified compound): 38.4%

CCC[C@H](NC(=O)[C@H](CC(=O)O)NC(C)=O)C(=O)N1[C@H](C(=O)N[C@@H](CC(=O)O)C(=O)COC(=O)c2c(C)cccc2C)C[C@@H]2CCCC[C@@H]21
kinact/KI (CASP6; enzyme activity, inhibitor): 23800 M⁻¹ s⁻¹

COc1ccnc(C)c1C
ΔTm (Nicotinamide N-methyltransferase, SAH-bound (NNMT, Homo sapiens, UniProt P40261); differential scanning fluorimetry; 1 mM, together with: 100 µM SAH): 5.8 °C

C#CCOc1ccc(C=NOCc2ccc3nc(-c4ccccc4)c(Nc4ccc(C(=O)O)cc4)n3c2)cc1
inhibition (TDP1; enzyme activity, inhibitor; 100 µM, unpurified compound): 30.1%

O=C(NC[C@@H](Cc1ccc(F)cc1)N1CCC(O)(C(F)(F)F)CC1)C1(c2ccc(Cl)cc2)CCCC1
EC50 fold change (Transient receptor potential cation channel subfamily A member 1 (TRPA1, Homo sapiens, UniProt O75762, L881I); calcium influx, agonist; baseline: L881I mutant over wild type): 1270

COc1ccc(OC)c(C2=Nn3c(nnc3-c3ccco3)SC2)c1
Hill slope (Uncharacterized protein; inhibitor, coupled colorimetric; Trypanosoma brucei): 0.97

CCN(CC)C(CO)c1cccc2c(C)c(C)oc12 (stereo not shown)
fold change (Lysophosphatidic acid receptor 1 (LPAR1, Homo sapiens, UniProt Q92633); G-protein dissociation, agonist, NanoBiT; HEK-293T; 1 nM, wild-type receptor; baseline: baseline luminescence): 0.829 and 0.88 and 1.01 and 0.914 and 0.92 and 0.883

CCCCCCCCCCCCC/C=C/C=O
isoTOP-ABPP competition ratio (Histone H3.2 (H3C15, Homo sapiens, UniProt Q71DI3); competitive isoTOP-ABPP, measured: HIST2H3C cysteine peptide; proteome, soluble, MDA-MB-231; 100 µM, together with: iodoacetamide probe; baseline: DMSO over compound-treated, higher = stronger cysteine blockade): 1

CCCCCCOc1ccc(C(=O)OCC[N+]2(C)CC=CCC2)cc1 (stereo not shown)
Emax (Muscarinic acetylcholine receptor M3 (CHRM3, Homo sapiens, UniProt P20309); membranes; 1 µM, 15 h, together with: carbachol; baseline: control): 1.14 ± 0.07 fold

O=C(Cc1ccc(OCc2ccccc2)cc1)NC1(C(=O)O)CCN(C(=O)c2ccc(-c3cccc(Cl)c3)cc2)CC1
activity vs control (Phosphatidylinositol 4-phosphate 3-kinase C2 domain-containing subunit alpha (PIK3C2A, Homo sapiens, UniProt O00443); enzyme activity, inhibitor; 10 µM): 115%

C#CCOC(=O)[C@@]1(C)C=C(C(=O)OC(C)(C)C)C(=O)CC1
normalized kinase activity (Mitogen-activated protein kinase 1 (MAPK1, Homo sapiens, UniProt P28482); enzyme activity, D-SENSOR; 0.5487 µM, mean of replicates): 1.02

Cc1ccc(S(=O)(=O)N2CC(NC(=O)c3ccccc3)C2=O)cc1 (stereo not shown)
IC50 (Rhomboid protease GlpG (glpG, Escherichia coli, UniProt P09391); enzyme activity, inhibitor, gel-based chimeric protein substrate): inactive

COC(=O)Cc1cc2c(cc1C(=O)c1ccc(Cl)cc1Cl)OCO2
desensitization time constant (Gria1; glutamate-evoked current, whole-cell patch clamp; HEK-293T; concentration not given, weighted tau, 500 ms pulse, together with: glutamate): 1.8 ± 0.1 ms

O=C1c2sc(-c3ccc(N4CCC(F)C4)nc3F)nc2CCN1c1cccnc1 (stereo not shown)
specific binding (TARDBP aggregated; radioligand binding; control brain sarkosyl-insoluble extract; 1.29 nM): -5 pM

C#CCCCCNC(=O)c1ccc(N(C(=O)C=C)c2ccc(Br)cc2)cc1
reactivity ratio (DnaJ homolog subfamily C member 1 (DNAJC1, Homo sapiens, UniProt Q96KC8); mass spectrometry profiling, measured: DNAJC1; H460 cell lysate; 100 µM over 10 µM, UniProt Q96KC8; baseline: high over low concentration): 1.69

CC(=O)N[C@H](C(=O)N[C@@H](CCC(=O)O)C(=O)N[C@@H](CCCCN(C)C)C(=O)N[C@@H](CC(=O)O)C(=O)COC(=O)c1c(C)cccc1C)C(C)C
kinact/KI (CASP6; enzyme activity, inhibitor): 66900 M⁻¹ s⁻¹

CN(Cc1cc(C2CC2)on1)C(=O)c1cccc(-c2ccc3c(c2)CCO3)c1
reaction rate (Acetyl-CoA synthetase (Cryptococcus neoformans, UniProt J9VFT1); enzyme activity, inhibitor, coupled pyrophosphate; 62.5 µM; higher is more activity): 9.32e-05 a.u.

Cc1cc(=O)oc2cc(NC(=O)CCCCCCC(=O)NO)ccc12
binding stoichiometry (Histone deacetylase 8 (HDAC8, Homo sapiens, UniProt Q9BY41); ITC; Tris-HCl buffer; concentration not given, 283 K): 0.9

O=C(O)Cc1cc2c(cc1C(=O)c1cccc(Br)c1)OCO2
desensitization time constant (Gria1; whole-cell patch clamp; HEK-293T; concentration not given, together with: glutamate): 1.2 ± 0.1 ms

CCCCCC=CC=C1C(=O)C=CC1CC=CCCCC(=O)O (stereo not shown)
isoTOP-ABPP competition ratio (Mini-chromosome maintenance complex-binding protein; competitive isoTOP-ABPP, measured: C10orf119 cysteine peptide; Ramos soluble proteome; 100 µM, together with: iodoacetamide probe; baseline: DMSO over compound-treated, higher = stronger cysteine blockade): 2

C[C@@H](Nc1nc(N[C@H](C)C(F)(F)F)nc(-c2cccc(Cl)n2)n1)C(F)(F)F
maximum inhibition (Isocitrate dehydrogenase [NADP] cytoplasmic (IDH1, Homo sapiens, UniProt O75874); 16 h preincubation): 84.2 ± 1%

O=C(O)c1ccc(Nc2c(-c3ccccc3)nc3ccc(CON=Cc4ccc(CN5CCCCC5)cc4)cn23)cc1 (mixture of isomers)
inhibition (TDP1; enzyme activity, inhibitor; 100 µM, unpurified compound): 8.7%

O=C1c2sc(-c3ccc(N4CCC(CO)CC4)nc3F)nc2CCN1c1cccnc1
specific binding (TARDBP aggregated; autoradiography; human, sections, FTLD-TDP, type C; 10 nM; higher = more binding): 0.82 a.u. and 0.87 a.u. and 1.14 a.u. and 0.92 a.u.

COC(=O)Cc1cc2c(cc1C(=O)c1cccc(Br)c1)OCO2
desensitization time constant (Gria1; glutamate-evoked current, whole-cell patch clamp; HEK-293T; concentration not given, weighted tau, 500 ms pulse, together with: glutamate): 2.7 ± 0.1 ms

Some of these lines once more:
O=C(O)Cc1cc2c(cc1C(=O)c1cccc(Br)c1)OCO2
desensitization time constant (Gria1; whole-cell patch clamp; HEK-293T; concentration not given, together with: glutamate): 1.2 ± 0.1 ms

CCCCCC=CC=C1C(=O)C=CC1CC=CCCCC(=O)O (stereo not shown)
isoTOP-ABPP competition ratio (Mini-chromosome maintenance complex-binding protein; competitive isoTOP-ABPP, measured: C10orf119 cysteine peptide; Ramos soluble proteome; 100 µM, together with: iodoacetamide probe; baseline: DMSO over compound-treated, higher = stronger cysteine blockade): 2

C[C@@H](Nc1nc(N[C@H](C)C(F)(F)F)nc(-c2cccc(Cl)n2)n1)C(F)(F)F
maximum inhibition (Isocitrate dehydrogenase [NADP] cytoplasmic (IDH1, Homo sapiens, UniProt O75874); 16 h preincubation): 84.2 ± 1%

O=C(O)c1ccc(Nc2c(-c3ccccc3)nc3ccc(CON=Cc4ccc(CN5CCCCC5)cc4)cn23)cc1 (mixture of isomers)
inhibition (TDP1; enzyme activity, inhibitor; 100 µM, unpurified compound): 8.7%
